Measurements pooled from the literature.
Numbered parts are unrelated; each lists some results of a single study.
UniProt Q15303, sequence (whole entry, looked up): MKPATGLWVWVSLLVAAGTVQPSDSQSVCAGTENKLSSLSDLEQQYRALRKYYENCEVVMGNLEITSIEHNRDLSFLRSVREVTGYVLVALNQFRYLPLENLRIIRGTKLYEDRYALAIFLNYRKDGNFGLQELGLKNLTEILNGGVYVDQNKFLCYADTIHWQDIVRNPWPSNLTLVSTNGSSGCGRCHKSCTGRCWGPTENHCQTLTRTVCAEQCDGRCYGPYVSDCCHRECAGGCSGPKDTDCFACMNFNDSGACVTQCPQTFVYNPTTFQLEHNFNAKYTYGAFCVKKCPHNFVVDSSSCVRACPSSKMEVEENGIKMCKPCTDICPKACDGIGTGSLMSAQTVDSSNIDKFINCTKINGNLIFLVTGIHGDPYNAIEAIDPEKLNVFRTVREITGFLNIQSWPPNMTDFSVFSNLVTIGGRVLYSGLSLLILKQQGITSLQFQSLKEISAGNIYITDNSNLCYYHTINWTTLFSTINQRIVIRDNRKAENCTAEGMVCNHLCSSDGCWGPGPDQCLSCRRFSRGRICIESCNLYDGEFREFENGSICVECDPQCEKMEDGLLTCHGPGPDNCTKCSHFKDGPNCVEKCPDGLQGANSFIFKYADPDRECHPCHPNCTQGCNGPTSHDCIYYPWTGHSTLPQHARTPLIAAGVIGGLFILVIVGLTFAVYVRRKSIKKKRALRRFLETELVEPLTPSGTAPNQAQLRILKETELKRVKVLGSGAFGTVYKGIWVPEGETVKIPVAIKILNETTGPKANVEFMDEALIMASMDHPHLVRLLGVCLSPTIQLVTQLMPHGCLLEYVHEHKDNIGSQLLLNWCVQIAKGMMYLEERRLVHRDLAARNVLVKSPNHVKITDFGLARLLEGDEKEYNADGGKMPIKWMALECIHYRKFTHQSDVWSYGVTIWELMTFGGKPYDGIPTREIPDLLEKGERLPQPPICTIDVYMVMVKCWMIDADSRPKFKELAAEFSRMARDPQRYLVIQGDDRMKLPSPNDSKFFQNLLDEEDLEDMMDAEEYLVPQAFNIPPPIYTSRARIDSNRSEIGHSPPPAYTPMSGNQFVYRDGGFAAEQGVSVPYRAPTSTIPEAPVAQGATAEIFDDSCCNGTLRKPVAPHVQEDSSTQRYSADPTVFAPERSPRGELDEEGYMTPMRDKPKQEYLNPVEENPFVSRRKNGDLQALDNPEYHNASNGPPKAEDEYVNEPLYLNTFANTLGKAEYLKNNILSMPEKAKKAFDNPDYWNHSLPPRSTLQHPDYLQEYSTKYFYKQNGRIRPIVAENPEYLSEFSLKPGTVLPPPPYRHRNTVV
UniProt O43293, sequence (whole entry, looked up): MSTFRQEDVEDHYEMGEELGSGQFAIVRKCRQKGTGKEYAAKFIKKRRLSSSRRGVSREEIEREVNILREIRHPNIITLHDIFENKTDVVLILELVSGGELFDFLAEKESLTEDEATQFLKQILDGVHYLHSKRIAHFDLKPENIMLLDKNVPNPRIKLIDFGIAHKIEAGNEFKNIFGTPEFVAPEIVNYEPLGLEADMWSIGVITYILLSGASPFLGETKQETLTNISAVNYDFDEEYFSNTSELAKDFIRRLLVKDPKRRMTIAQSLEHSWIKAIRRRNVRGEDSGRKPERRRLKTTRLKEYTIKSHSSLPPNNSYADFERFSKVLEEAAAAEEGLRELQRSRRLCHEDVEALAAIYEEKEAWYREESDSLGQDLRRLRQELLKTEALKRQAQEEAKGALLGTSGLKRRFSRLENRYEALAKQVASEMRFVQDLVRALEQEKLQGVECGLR
UniProt P49674, sequence (whole entry, looked up): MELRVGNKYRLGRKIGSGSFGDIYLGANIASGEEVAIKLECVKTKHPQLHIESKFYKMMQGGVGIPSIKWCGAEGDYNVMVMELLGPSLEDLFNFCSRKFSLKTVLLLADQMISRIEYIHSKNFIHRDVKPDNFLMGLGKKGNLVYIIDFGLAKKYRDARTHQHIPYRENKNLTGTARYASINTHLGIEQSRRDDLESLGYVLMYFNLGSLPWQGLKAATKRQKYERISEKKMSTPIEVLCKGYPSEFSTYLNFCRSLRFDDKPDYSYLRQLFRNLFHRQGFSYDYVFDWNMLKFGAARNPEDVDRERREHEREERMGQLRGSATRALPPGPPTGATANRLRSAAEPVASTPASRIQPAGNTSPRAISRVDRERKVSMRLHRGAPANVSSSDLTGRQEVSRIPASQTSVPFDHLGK
UniProt Q6XUX3, sequence (whole entry, looked up): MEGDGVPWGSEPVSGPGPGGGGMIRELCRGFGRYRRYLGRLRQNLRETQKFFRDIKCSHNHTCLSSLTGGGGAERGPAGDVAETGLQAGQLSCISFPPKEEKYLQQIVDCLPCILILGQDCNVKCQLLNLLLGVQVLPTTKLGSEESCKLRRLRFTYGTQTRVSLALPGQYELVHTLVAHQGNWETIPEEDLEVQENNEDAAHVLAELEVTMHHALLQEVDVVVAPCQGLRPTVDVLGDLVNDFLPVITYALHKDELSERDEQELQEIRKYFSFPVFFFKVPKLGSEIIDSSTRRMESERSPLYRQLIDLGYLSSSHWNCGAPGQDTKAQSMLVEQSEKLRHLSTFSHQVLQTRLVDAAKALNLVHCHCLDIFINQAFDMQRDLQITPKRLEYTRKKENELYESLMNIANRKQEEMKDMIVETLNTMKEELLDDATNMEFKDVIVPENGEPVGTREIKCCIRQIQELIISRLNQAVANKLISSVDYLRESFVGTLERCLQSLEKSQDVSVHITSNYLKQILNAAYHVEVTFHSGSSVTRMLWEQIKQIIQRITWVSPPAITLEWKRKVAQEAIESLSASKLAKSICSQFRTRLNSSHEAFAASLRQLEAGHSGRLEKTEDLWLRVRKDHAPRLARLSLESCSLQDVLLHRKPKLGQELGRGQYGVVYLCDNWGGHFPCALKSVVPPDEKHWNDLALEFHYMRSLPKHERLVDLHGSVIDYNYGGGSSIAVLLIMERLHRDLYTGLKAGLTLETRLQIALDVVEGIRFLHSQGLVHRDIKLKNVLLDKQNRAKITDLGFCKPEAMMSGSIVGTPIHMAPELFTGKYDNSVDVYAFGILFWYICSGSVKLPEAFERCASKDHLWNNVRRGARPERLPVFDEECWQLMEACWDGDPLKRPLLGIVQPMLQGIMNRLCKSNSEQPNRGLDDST

Sample 1
SMILES: O=C(Nc1cnc(Oc2ccc(F)cc2)nc1)N1CCc2ncccc2[C@@H]1c1ccc(F)cc1
Read-out: cell-free assay
Method: competition with immobilised ligand
Concentration: 1 µM
target | remaining binding
STE20/SPS1-related proline-alanine-rich protein kinase (STK39, Homo sapiens, UniProt Q9UEW8) | 77%
Casein kinase I isoform epsilon (CSNK1E, Homo sapiens, UniProt P49674) | 66%
Epidermal growth factor receptor (EGFR, Homo sapiens, UniProt P00533, del747-752/P753S) | 100%
Tyrosine-protein kinase ABL1, phosphorylated (ABL1, Homo sapiens, UniProt P00519, Y253F) | 100%
Dual serine/threonine and tyrosine protein kinase (DSTYK, Homo sapiens, UniProt Q6XUX3) | 100%
Receptor tyrosine-protein kinase erbB-4 (ERBB4, Homo sapiens, UniProt Q15303) | 97%
Death-associated protein kinase 3 (DAPK3, Homo sapiens, UniProt O43293) | 100%

Sample 2
Cell line: mouse MPNST tumor cells
Method: high-content nuclear imaging
Item: cell number
Concentration: 10 µM
Time: 12 h
Notes: mean of 2 replicates
Reference: plate mean
Direction: higher = more cells
Compound | nuclei count [z-score]
O=c1cc(N2CCNCC2)oc2c(-c3ccccc3)cccc12 | 2.77
C/C(=C\C(=O)Nc1ccccc1C(=O)O)c1ccc2ccccc2c1 | 0.275
COc1cc2nc(N3CCCN(C)CC3)nc(NC3CCN(Cc4ccccc4)CC3)c2cc1OC | -4.8
O=C(Oc1cccc(F)c1OC(=O)c1cccc(O)c1)c1cccc(O)c1 | -1.26
CCOc1ncc(S(=O)(=O)N2CCN(CC)CC2)cc1-c1nc2c(CC)n(CCOC)nc2c(=O)[nH]1 | 0.14

Sample 3
Host: mouse
Medium: microsomes or S9
Concentration: 2 µM
Time: 0.5 h
Structure (SMILES) | remaining compound [%]
c1ccc(C(c2ccccc2)([C@H]2CCCN2)n2cc(-c3ccccn3)nn2)cc1 | 1.53
Oc1ccc(/C=C/c2c3c(cc4c2[C@H](c2cc(O)cc(O)c2)[C@@H](c2ccc(O)cc2)O4)O[C@H](c2ccc(O)cc2)[C@H]3c2cc(O)cc(O)c2)cc1 | 53.5
CC(C)(C)OC(=O)N1c2ccccc2[C@H]2OC(=O)C[C@H]21 | 59.5
Cc1cc2c(nc1C)sc1c(=O)n(C(C)C)cnc12 | 8.24
COCCN1N=C(C)Cn2c1nc1c2c(=O)n(Cc2ccccc2Cl)c(=O)n1C | 49.6
CCOP(=O)(Cc1ccc(-c2ccccc2OC)cn1)OCC | 0.477

Sample 4
Target: Calcium/calmodulin-dependent protein kinase kinase 1 (CAMKK1, Homo sapiens, UniProt Q8N5S9)
UniProt Q8N5S9, sequence (whole entry, looked up): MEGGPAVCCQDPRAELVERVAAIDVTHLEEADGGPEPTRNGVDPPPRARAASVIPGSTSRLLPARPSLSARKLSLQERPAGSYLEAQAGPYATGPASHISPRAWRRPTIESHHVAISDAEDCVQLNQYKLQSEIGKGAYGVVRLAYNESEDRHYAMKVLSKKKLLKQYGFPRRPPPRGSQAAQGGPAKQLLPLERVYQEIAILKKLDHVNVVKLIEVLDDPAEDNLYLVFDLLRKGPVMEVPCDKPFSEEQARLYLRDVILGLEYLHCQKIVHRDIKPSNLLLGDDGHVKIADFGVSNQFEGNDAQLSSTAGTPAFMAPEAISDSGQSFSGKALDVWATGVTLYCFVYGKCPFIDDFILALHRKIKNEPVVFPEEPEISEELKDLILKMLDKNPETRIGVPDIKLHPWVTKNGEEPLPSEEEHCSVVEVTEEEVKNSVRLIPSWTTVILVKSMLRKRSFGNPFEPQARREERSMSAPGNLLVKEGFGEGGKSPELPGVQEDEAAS
Read-out: enzyme activity
Mode: inhibitor
Concentration: 0.5 µM
Reference: control
SMILES | remaining activity
COc1cc2nccc(Oc3ccc(NC(=S)NC(=O)c4ccccc4C)cc3)c2cc1OC | 91.2%
CN(C)c1ccc(C=C2C(=O)Nc3ccccc32)cc1 | 98.6%
O=S(=O)(c1cccc2cnccc12)N1CCCNCC1 | 108%
Cn1c2ccccc2c2c3c(c4c5ccccc5n(CCC#N)c4c21)CNC3=O | 19.3%
COc1ccc(OC)c2c(=S)c3ccccc3[nH]c12 | 108%
COc1ccc(C(=O)Nc2sc3c(c2C(N)=O)CCCC3)cc1OC | 125%
COc1cc2ncnc(Nc3ccc(Oc4ccccc4)cc3)c2cc1OC | 93.1%
O=C(O)c1ccc2c3c1cccc3c(=O)n1c3ccccc3nc21 | 45.8%
Nc1ccc2ncnc(NCCc3ccc(Oc4ccccc4)cc3)c2c1 | 119%
CO[C@H]1C[C@@H]2CC[C@@H](C)[C@@](O)(O2)C(=O)C(=O)N2CCCC[C@H]2C(=O)O[C@H]([C@H](C)C[C@@H]2CC[C@@H](O)[C@H](OC)C2)CC(=O)[C@H](C)/C=C(\C)[C@@H](O)[C@@H](OC)C(=O)[C@H](C)C[C@H](C)/C=C/C=C/C=C/1C | 118%
CNC(=O)c1cc(Oc2ccc(NC(=O)Nc3ccc(Cl)c(C(F)(F)F)c3)cc2)ccn1 | 103%
COc1cc2ncnc(Nc3ccc(F)c(Cl)c3)c2cc1OCCCN1CCOCC1 | 93.8%
N#CC(C#N)=C(N)/C(C#N)=C/c1ccc(O)cc1 | 104%
Cc1ccc(Nc2nccc(N(C)c3ccc4c(C)n(C)nc4c3)n2)cc1S(N)(=O)=O | 72%
OCC(O)CCON=C1C(c2c(O)[nH]c3ccccc23)=Nc2ccccc21 (stereo not drawn) | 26.2%

For quick reference, copied from above (sample 4):
SMILES | remaining activity
CN(C)c1ccc(C=C2C(=O)Nc3ccccc32)cc1 | 98.6%
O=S(=O)(c1cccc2cnccc12)N1CCCNCC1 | 108%
Cn1c2ccccc2c2c3c(c4c5ccccc5n(CCC#N)c4c21)CNC3=O | 19.3%
COc1ccc(OC)c2c(=S)c3ccccc3[nH]c12 | 108%
